Measured values pooled from the literature.
A part holds a random share of what one study measured.

Series 1
Target: Interferon regulatory factor 5, full length, phosphomimetic (IRF5, Homo sapiens, UniProt Q13568-2, residues 1-514, K96S/S451D/S453D/S456D/S462D)
Method: protein-binding microarray
Form: double-stranded DNA, one strand shown
Medium: in vitro
Concentration: 250 nM
Notes: 60-bp whole probe
Added: salmon DNA 0.4 mg/ml
Baseline: random background probes
Reading: higher = stronger binding
All sequences stand within: GCCTAGCAC … GTCTTGATTCGCTTGACGCTGCTG
`TATGTCTGGCCCAAGCAGCCGTGCTAG` gave a log fluorescence of -0.566 z-score.
`GTCGATCTCAGTCTCGAGACGTGCTAG` gave a log fluorescence of 0.185 z-score.
The log fluorescence of `CCGAGTCCCTATCTCCTCACGTGCTAG` is reported as 0.0138 z-score.
`AGGTTTCTATATTTGCTTCAGTGCTAG` gave a log fluorescence of 3.32 z-score.
With `TTAGATTTCGGGAATGGATTAGTGCTA` the log fluorescence was 3.29 z-score.
`TCAAAATTATCTTTAATACTGTGCTAG` has a log fluorescence of 0.516 z-score.
The log fluorescence of `TTAGGTATCGGGTCTGGGTTAGTGCTA` is reported as 2.96 z-score.
`TACGGTTTCGGGACTGGGGACGTGCTA` gave a log fluorescence of 4.51 z-score.
`TTAGAACCGAGTCTCGATTAGTGCTAG` gave a log fluorescence of 0.646 z-score.
The log fluorescence of `TCAAAACTCACTCATGGCACTGTGCTA` is reported as -0.156 z-score.
The log fluorescence of `GTAGATTTCAGACTGGATTAGTGCTAG` is reported as 0.227 z-score.
The log fluorescence of `TTAGGTTTCGACACTGAGTTAGTGCTA` is reported as 6.19 z-score.
`TCAGTTTTCAGCTGTTTTACTGTGCTA` has a log fluorescence of 1.63 z-score.
`TCACGTAAGCAAAAATGACTGTGCTAG` gave a log fluorescence of 0.192 z-score.
`TTAGCTATCGGGACTGGGTTAGTGCTA` has a log fluorescence of 2.17 z-score.
`GTGTTTCTCAAATGTTTTGTTGTGCTA` has a log fluorescence of 1.42 z-score.

Series 2
Target: RING finger protein unkempt homolog, zinc fingers 1-6, GST-SBP tag (UNK, Homo sapiens, UniProt Q9C0B0, residues 30-357)
Method: RNA Bind-n-Seq
Form: RNA
Medium: in vitro
Concentration: not given
Notes: RNA with constant flanks, human and mouse sites, ends assumed
Baseline: input RNA pool
Reading: higher = stronger binding
All sequences stand within: GGGAGUUCUACAGUCCGACGAUC … CAACAGAGGAUUGAGCAUCA
Residues (chain): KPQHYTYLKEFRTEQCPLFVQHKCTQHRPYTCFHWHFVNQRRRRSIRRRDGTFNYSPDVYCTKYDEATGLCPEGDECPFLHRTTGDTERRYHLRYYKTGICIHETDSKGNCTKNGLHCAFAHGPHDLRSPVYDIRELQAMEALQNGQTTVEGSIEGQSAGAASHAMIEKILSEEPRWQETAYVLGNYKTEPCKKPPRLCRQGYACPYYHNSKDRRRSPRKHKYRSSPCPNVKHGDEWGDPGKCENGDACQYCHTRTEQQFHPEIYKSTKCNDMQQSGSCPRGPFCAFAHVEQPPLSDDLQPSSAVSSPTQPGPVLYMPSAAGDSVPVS
With `UCAGGGUGGAAGUCCAUGAUUCAGUCUCACCCUCAUUUAGUAGCAGAAGCCUUUCGAGCACUAGCAUCUGCACAGUGUCCACAGUUUGGCAUUCCACGCAAACGGCUAAAACAGUCCUGA` the bound/input enrichment was 0.0996 ratio.
The bound/input enrichment of `GGUGUGCCAGCUCUGACGCAGAACCUACCAAGGAUACUCAGAAAAGAACGCCCUAUAUCAUUAGGAAUUUUCCCAUUACCUGCUGGAGAUGGAUUGCUUACACCUGAUGCUCAGAAAGGA` is reported as 1.71 ratio.
`UGGGAACCGGCGAGAAUCGCCUUUCUGAAUGAAGAGCCCUCUUCACUGCCCCACCCUCACCUUAGAAUUCUCUCCUCUUUCCAAAGAAUGGCAGUUGAACCUCACUGGCCCCUCUGGGGA` has a bound/input enrichment of 0.178 ratio.
For `AUGGAGGUUAAAGUGAAGAUUCCUGAAGAAUUAAAACCAUGGCUUGUUGAGGACUGGGACUUAGUUACCAGGCAGAAGCAGCUGUUUCAACUCCCUGCCAAGAAAAAUGUAGAUGCAAUU`, the bound/input enrichment was 0.666 ratio.
With `AUGAUUCAGAAUCAUUUUCUAUUGUGGUAUUAUAGGUUGGUUAAAGUGAUGGCCUUUUUGAUGGGUUUUGUUGUGUCUUGUGAACAAGUCGUUACUGUGUCCAUUAUUGGAAUGGAAUUA` the bound/input enrichment was 0.418 ratio.
`AGAUGAUGAUUGCACGGUUAGACACACAGCUGAAGAAUAAGCUUAUAACACUGAUGGGUCAGAAGACAUCUCUAACCCAAGAAACAGAGCUUUUGGAAUCCUUACUUCAGGAGGUGGAGC` has a bound/input enrichment of 0.258 ratio.
The bound/input enrichment of `CGAGAUGAGUUUCUGAGGAUCAGCACUGCCAGUGGAGAUGGGCGUCACUACUGCUACCCUCAUUUCACCUGCGCUGUGGACACUGAGAACAUCCGCCGUGUGUUCAACGACUGCCGUGAC` is reported as 0.037 ratio.
The bound/input enrichment of `CUGACCCUGGCCAACAAUGUGACUCCAGCCAAAGAUGUUCCACCACUCUCAGAAACAGAGGCAACACCAGUUCCAAUUAAAGACAUGGAAAUUGCACAAACACAAAAAGGAAUAAGUGAG` is reported as 0.206 ratio.
For `AGAACUUCAGUAAAUUCUCAGAGAGAAUACCAGCUAGUGAAACUACUUUUGGAUAAUACUCAAAUUAUGAAUGCUCUACAGAAAUACUCCAACUGCCCUACAGAUGUUAGGCAGUGGGCA`, the bound/input enrichment was 1.28 ratio.
`GGAGGGCUCCUAACAGUGUAACUUAUUGUGUCCCCGCGUAUUUAUUUGUUGUAAAUAUUUGAGUAUUUUUAUAUUGACAAAUAAAAUGGAGAAAAUGAAACGAUUGCUCUGAUGGGGCUA` has a bound/input enrichment of 0.129 ratio.
For `AGGUUUCAUUUUAAAACAAAGUUUUCCAGUGUUAAUCUGAUCUUAUAACACCUCUCCCUGUCCUCUGUGGUUUUGUAGAGGUGGAUGAAGGUUGCUAGAGAUCAUGUCUAACAUGUUAAA`, the bound/input enrichment was 0.216 ratio.

Series 3
Target: Phosphate system positive regulatory protein PHO4, full length, GST-tagged (PHO4, Saccharomyces cerevisiae, UniProt P07270, residues 1-312)
Method: competition protein-binding microarray
Form: double-stranded DNA, one strand shown
Medium: in vitro
Concentration: 2 µM
Notes: whole 60-bp probe, lowest competitor level
Added: Cbf1 competitor, 0.05 µM
Reading: higher = stronger binding
All sequences stand within: … GTCTTGATTCGCTTGACGCTGCTG
Residues (chain): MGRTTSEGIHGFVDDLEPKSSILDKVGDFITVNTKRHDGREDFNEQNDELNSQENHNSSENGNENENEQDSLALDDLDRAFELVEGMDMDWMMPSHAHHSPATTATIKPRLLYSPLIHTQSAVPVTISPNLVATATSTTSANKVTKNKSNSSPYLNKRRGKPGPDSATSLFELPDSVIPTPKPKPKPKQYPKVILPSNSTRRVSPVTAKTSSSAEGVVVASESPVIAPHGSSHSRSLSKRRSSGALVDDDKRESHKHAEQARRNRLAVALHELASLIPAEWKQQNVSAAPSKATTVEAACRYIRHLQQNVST
The fluorescence intensity of `ATGAGCTACATTCACCACGTGTCGGAGACTGGGAAA` is reported as 16000 a.u.
The fluorescence intensity of `CTTTCCCGATCTTGCACCGTGGGTGTAGCACATTTG` is reported as 8290 a.u.
The fluorescence intensity of `CATACCCAACCTTGCCAGGTGGGTGAAGATATTTGT` is reported as 6140 a.u.
`CTTGTGCGGGGAGGACACGCTGAATAGAAGGCTTGT` gave a fluorescence intensity of 6400 a.u.
`TGCGCAACAACTTGTCACCTGACTTTATGTCTAGAA` gave a fluorescence intensity of 3200 a.u.
`AAAGCGGTAATTTGTTATGTGGGTGCAGATATCTAT` has a fluorescence intensity of 4430 a.u.
`TGCGCAACAACTTGAGGCGTGGGTGTATGTCTAGAA` gave a fluorescence intensity of 9370 a.u.
`TTGATGTACTTGTCTCACGTGGAAGCAACCATTTTG` gave a fluorescence intensity of 13800 a.u.
`CGGTCATCGGGCGCGCTCGTGGACGATGACAAGCGC` has a fluorescence intensity of 7280 a.u.
`AGCAACCTTCTTGGCACCGTGCTTTTTGGCGACCTT` gave a fluorescence intensity of 7000 a.u.
The fluorescence intensity of `CGCGCAGGATGCCATCACGGGCGATGGGACCACTAC` is reported as 5540 a.u.
For `CGTCCTAGTGATTGGCGAGTGGGTGCCATGAGGAAG`, the fluorescence intensity was 6270 a.u.
`GATTCTCTCCTCGACCACGGGGGGCAACTCTGCCTG` gave a fluorescence intensity of 8400 a.u.
With `CTAACGAAGGTTTGGTCAGTGGGTGACAAGCCAAGT` the fluorescence intensity was 4170 a.u.
For `GTCTTGTCTCATTGTCGAGTGGGTGTCCCCACTTCA`, the fluorescence intensity was 6080 a.u.
The fluorescence intensity of `CTTTCCCGATCTTGACGCGTGGGTGTAGCACATTTG` is reported as 10100 a.u.
With `CGTCCTAGTGATTGGTCTGTGGGTGCCATGAGGAAG` the fluorescence intensity was 6700 a.u.
`AAAGCGGTAATTTGAGAAGTGGGTGCAGATATCTAT` has a fluorescence intensity of 4100 a.u.
`CTTTCCCGATCTTGACCGGTGGGTGTAGCACATTTG` has a fluorescence intensity of 4190 a.u.

Series 4
Target: RNA binding protein fox-1 homolog 2, RRM domain, GST-SBP tag (RBFOX2, Homo sapiens, UniProt O43251-10, residues 100-194)
Method: RNA Bind-n-Seq
Form: RNA
Medium: in vitro
Concentration: 365 nM
Notes: natural RNA segment, single round, ends assumed
Baseline: no-protein control
Reading: higher = stronger binding
All sequences stand within: GGGAGUUCUACAGUCCGACGAUC … UGGAAUUCUCGGGUGCCAA
Construct (chain): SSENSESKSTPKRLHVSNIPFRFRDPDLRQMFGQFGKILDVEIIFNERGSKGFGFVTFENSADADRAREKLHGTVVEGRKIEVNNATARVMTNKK
For `ACUCGGAAUACCUCUGUUUUCCAUUUCAAAUUGUAGGGGGAGGGGAUGGAACACUUCCAGUGAUGGUAAGAGAUCUGUUAUGAAACGAAACACCCCCCGUGUUAAUAACU`, “RBNS enrichment (R)” read 0.35.
`CCAUUUUUUGUGCCUUGUGCUGUUGGAUGGUAACGACCACUCACCAUGUAAACACAGUACCUCAGUUUUCUGUCCACAGCUGCAGUCGCUCUGUCCCUCGUGCUUCACUG` — result for “RBNS enrichment (R)”: 3.16.
`GUUCCAAUAAAACUUUAUUUAUGGACACUAAAAUUUGAAUUUCAUAAAAUUUUCCCAUGUCAAGAAUACAAAAUACUUGAGUUUUGUUUUUAGCUAUUUAAUAAUAGGUC` — result for “RBNS enrichment (R)”: 0.502.
For `UCCUGCGAGCUCCUUGGGUCCUGCAAUCUCCAGGGCUGCCCCUGUAGGUUGCUUAAAAGGGACAGUAUUCUCAGUGCUCUCCUACCCCACCUCAUGCCUGGCCCCCCUCC`, “RBNS enrichment (R)” read 0.572.
`UGGGGCUUAGAGUCCGUGCAGGUGGGGAUAUGGGUAAAUCUAGGAGAACUCACAGAUCUUUAUAUGAGGACAGUGCUGAGGACUUUCUCAUGGCUCCAUCCUUUUGGUCC` — result for “RBNS enrichment (R)”: 0.464.
For `GCUUUUUAAGAACUACUUUAAUUGAAAGAUAAGAACUUUGCUAUCUUAUGCAGUGUAGUGUUCCCUUUCUGAAGACCUCAUUGUAAGACAGCUUUAUGUGCAUAGUGCUC`, “RBNS enrichment (R)” read 0.442.
Under “RBNS enrichment (R)”, `CUAAGUCUUGAACCAACUGACUCCCGAAUGCCAUUCCCGGAAGGAACCAAGUGGUGACUUUGUCCUCUGCCUGCUCAGUCACAAAGUAUAUCACUAGGCCAUAAAAAUGG` is recorded as 0.259.
For `CAGGACCCUUAGAAUCAUAUUUUAGCUGAAGGAUGCUCACUGAUGCGGCCGAGGGCUUGGGAUACUGCACAGUGCUACUGUGUCCUGUGAAGGCUGGUGCACUCAGGGCU`, “RBNS enrichment (R)” read 0.5.
`AGACAGACUGCGAAUCACUUUUCUGCUGUGAGGGUGAUGGUGCCUGAUGCGGUGUCUCGCCUAUCUCCUUAUUUAAGCCCUUAACUCCUUGCCCUUUGAGAGUGUCCAUU`: “RBNS enrichment (R)” 0.23.
Under “RBNS enrichment (R)”, `AGUUAAAAGUGCUGACUGAGCAGUCUGACCCCCACGUGGGCACCUGCACUACCAGUUGUUAGAGGAAAUUCACUCCCUCCUAGUGAGAGUUGAAAGGUCAAAUUAUUUUG` is recorded as 0.356.
For `GCUUAGAAUUAAAUAUCACUUUCUUAUGAACAACAUAACUUCUUCAGAUUGUGUAUAUGAAAACAUUAGCAAGUCUUGUUUUUUCUAUGAAGCAAACACAAUUGGUGACA`, “RBNS enrichment (R)” read 0.315.
Under “RBNS enrichment (R)”, `CUACCCUUGCUCACUGACUUCCUGUUGUAACACACUUUCCUUACGGAGCCUGGCUGUUUCACAGUAUUUCAUGAAUUUACCCACACAGGUGUGAUCCUCCUUGAGCAUUG` is recorded as 0.279.

Excerpt of the above (series 3):
The fluorescence intensity of `ATGAGCTACATTCACCACGTGTCGGAGACTGGGAAA` is reported as 16000 a.u.
The fluorescence intensity of `CTTTCCCGATCTTGCACCGTGGGTGTAGCACATTTG` is reported as 8290 a.u.
The fluorescence intensity of `CATACCCAACCTTGCCAGGTGGGTGAAGATATTTGT` is reported as 6140 a.u.
`CTTGTGCGGGGAGGACACGCTGAATAGAAGGCTTGT` gave a fluorescence intensity of 6400 a.u.
`TGCGCAACAACTTGTCACCTGACTTTATGTCTAGAA` gave a fluorescence intensity of 3200 a.u.
`AAAGCGGTAATTTGTTATGTGGGTGCAGATATCTAT` has a fluorescence intensity of 4430 a.u.
`TGCGCAACAACTTGAGGCGTGGGTGTATGTCTAGAA` gave a fluorescence intensity of 9370 a.u.
